Assay results pooled from the literature.
Each line is one published result; not all experiments were run side by side. ± marks the error that the study gave.
B1: enzyme Y7F (Streptomyces parvus, UniProt A0A7K3RVR3); chain MYVPEQFRPRDASWTLELIRSNPLALLVTNGPQHPWATHVPVLFAEEPDGPEGPDGLDATGDDLVGRRLLGHLNLMNPHWEALAGAGHALLVFQGPGSYVSPTVYETAPAAPTWDFTSVHVHGALRLIDDPDDLRKIVQATVRAYEREVGTDWDMSESLEYFERLLPGVRGFEIKIESVDSMFKLSQEQLPETVTKVIDSFRRSDGGRRQELATMIERAASD
B2: enzyme (Oryza sativa, UniProt A0A7G1K8F5); chain MADESWRAPAIVQELAAAGVEEPPSRYLLREKDRSDVKLVAAELPEPLPVVDLSRLDGAEEATKLRVALQNWGFFLLTNHGVEASLMDSVMNLSREFFNQPIERKQKFSNLIDGKNFQIQGYGTDRVVTQDQILDWSDRLHLRVEPKEEQDLAFWPDHPESFRDVLNKYASGTKRIRDDIIQAMAKLLELDEDYFLDRLNEAPAFARFNYYPPCPRPDLVFGIRPHSDGTLLTILLVDKDVSGLQVQRDGKWSNVEATPHTLLINLGDTMEVMCNGIFRSPVHRVVTNAEKERISLAMLYSVNDEKDIEPAAGLLDENRPARYRKVSVEEFRAGIFGKFSRGERYIDSLRI
B3: enzyme E188A (Streptomyces parvus, UniProt A0A7K3RVR3); chain MYVPEQYRPRDASWTLELIRSNPLALLVTNGPQHPWATHVPVLFAEEPDGPEGPDGLDATGDDLVGRRLLGHLNLMNPHWEALAGAGHALLVFQGPGSYVSPTVYETAPAAPTWDFTSVHVHGALRLIDDPDDLRKIVQATVRAYEREVGTDWDMSESLEYFERLLPGVRGFEIKIESVDSMFKLSQAQLPETVTKVIDSFRRSDGGRRQELATMIERAASD

| Substance | target or system | assay | system | conditions | scale | measurement | result |
| --- | --- | --- | --- | --- | --- | --- | --- |
| CC[C@H](C)[C@@H]([C@@H](CC(=O)N1CCC[C@H]1[C@H](OC)[C@@H](C)C(=O)N[C@H](C)[C@@H](O)c1ccccc1)OC)N(C)C(=O)[C@@H](NC(=O)[C@H](C(C)C)N(C)C(=O)OCc1ccc(NC(=O)[C@H](CCCNC(N)=O)NC(=O)[C@@H](NC(=O)CCCCCN2C(=O)CC(SC[C@H](NC(=O)[C@H](CC(=O)O)NC(=O)[C@H](Cc3ccc(O)cc3)NC(=O)[C@H](Cc3c[nH]c4ccccc34)NC(=O)[C@@H](N)CCCNC(=N)N)C(=O)O)C2=O)C(C)C)cc1)C(C)C (some centres unmarked) | – | – | C57BL/6 mouse, healthy, lung | intraperitoneal, 2.5 mg/kg, 24 h | – | concentration | not detected |
| B1 (enzyme Y7F) | N[C@@H](CCCNO)C(=O)O | steady-state kinetics | – | pH 8, 25 °C, added: heme | – | kcat | 2.47 s⁻¹ |
| ORF34 Y215A (Kaposi's sarcoma-associated herpesvirus) | ORF66 | pull-down | 293T | – | reference: wild-type ORF34, higher = more prey pulled down | relative binding | 0.16 |
| CCCC[C@H](NC(=O)CN1CCC(NC(=O)CN2CCN(CC(N)=O)CCN(CC(N)=O)CCN(CC(N)=O)CC2)CC1)C(=O)N[C@H]1CC(=O)NCCCC[C@@H](C(N)=O)NC(=O)[C@H](Cc2c[nH]c3ccccc23)NC(=O)[C@H](CCCNC(=N)N)NC(=O)[C@@H](Cc2ccccc2)NC(=O)[C@H](Cc2c[nH]cn2)NC1=O | – | iTLC | human serum | 72 h, 37 °C, lead-203-labelled | – | intact complex | 100% |
| CC[C@H](C)[C@H](NC(=O)[C@H](CCC(N)=O)NC(=O)[C@H](Cc1c[nH]cn1)NC(=O)[C@@H](NC(=O)[C@H](Cc1c[nH]c2ccccc12)NC(=O)[C@H](CO)NC(=O)[C@H](CCC(N)=O)NC(=O)[C@@H]1CCCN1C(=O)[C@H](Cc1c[nH]cn1)NC(=O)[C@@H](NC(=O)[C@H](CCCNC(=N)N)NC(=O)[C@H](CC(C)C)NC(=O)[C@H](Cc1ccc(O)cc1)NC(=O)[C@H](CCCNC(=N)N)NC(=O)[C@@H](NC(=O)[C@H](CS)NC(=O)[C@H](CCCCN)NC(=O)[C@H](Cc1ccccc1)NC(=O)[C@@H](NC(=O)[C@H](CCCCN)NC(=O)[C@H]1CC[C@H](CN)CC1)[C@@H](C)O)[C@@H](C)O)[C@@H](C)CC)C(C)C)C(=O)O | rat cortical neurons | MTT | – | 1.0 mg/ml, 24 h, 37 °C | – | viability | 5 to 10% |
| B2 (enzyme) | CS(=O)(=O)c1ccc(C(=O)C2C(=O)CCCC2=O)c([N+](=O)[O-])c1 | steady-state kinetics | – | pH 7.4, 30 °C | – | kcat | 0.0251 ± 0.0008 s⁻¹ |
| B3 (enzyme E188A) | N[C@@H](CCCNO)C(=O)O | steady-state kinetics | – | pH 8, 25 °C, added: heme | – | kcat | 0.125 s⁻¹ |
| CC[C@H](C)[C@H](NC(=O)[C@H](CCC(N)=O)NC(=O)[C@H](Cc1c[nH]cn1)NC(=O)[C@@H](NC(=O)[C@H](Cc1c[nH]c2ccccc12)NC(=O)[C@H](CO)NC(=O)[C@H](CCC(N)=O)NC(=O)[C@@H]1CCCN1C(=O)[C@H](Cc1c[nH]cn1)NC(=O)[C@@H](NC(=O)[C@H](CCCNC(=N)N)NC(=O)[C@H](CC(C)C)NC(=O)[C@H](Cc1ccc(O)cc1)NC(=O)[C@H](CCCNC(=N)N)NC(=O)[C@@H](NC(=O)[C@H]1CC[C@H](CN)CC1)[C@@H](C)O)[C@@H](C)CC)C(C)C)C(=O)O | HUVEC | MTT | – | 1.0 mg/ml, 24 h, 37 °C | – | viability | 5 to 10% |
| AAUUUUUUAGGGAAGAUCUGGCCUUCCUACAAGGGAAGGCCAGGGAAUUUUCUUC (ssRNA (HIV-1); stem-loop) | SHFL 1-291 T253A (Homo sapiens, UniProt Q9NUL5) | BLI | folded RNA | – | reference: WT, lower = weaker affinity | relative binding | > 4 fold |
| CC[C@H](C)[C@H](NC(=O)[C@H](CO)NC(=O)[C@H](Cc1ccc(O)cc1)NC(=O)[C@H](Cc1ccc(O)cc1)NC(=O)[C@H](CC(N)=O)NC(=O)CNC(=O)[C@H](CO)NC(=O)[C@H](Cc1ccc(O)cc1)NC(=O)[C@H](CO)NC(=O)[C@H](CO)NC(=O)[C@H](CC(N)=O)NC(=O)COCCOCCNC(=O)CN1CCN(CC(=O)O)CCN(CC(=O)O)CCN(CC(=O)O)CC1)C(=O)N[C@@H](CC(C)C)C(N)=O [copper-64 labelled] | – | dynamic PET | KPC mouse, pancreatic cancer model, blood | intravenous, 0.6 min, 49 days after tamoxifen | – | tumour uptake | 33.6 %ID/mL |
| ORF34 G182A (Kaposi's sarcoma-associated herpesvirus) | ORF66 | pull-down | 293T | – | reference: wild-type ORF34, higher = more prey pulled down | relative binding | 0.36 |
